Measured values collected from several papers.
Numbered parts are unrelated; each lists some results of a single study. Positions count from the first letter of the parent shown.

Set 1 — method: RNA Bind-n-Seq; form: RNA; matrix: in vitro; tested at: 365 nM; baseline: no-protein control; reading: higher = stronger binding; quantity: RBNS enrichment (R)
Target: RNA binding protein fox-1 homolog 2, RRM domain, GST-SBP tag (RBFOX2, Homo sapiens, UniProt O43251-10, residues 100-194)
Notes: natural RNA segment, single round, ends assumed
Shared flanks, not repeated: GGGAGUUCUACAGUCCGACGAUC … UGGAAUUCUCGGGUGCCAA
Target sequence (chain): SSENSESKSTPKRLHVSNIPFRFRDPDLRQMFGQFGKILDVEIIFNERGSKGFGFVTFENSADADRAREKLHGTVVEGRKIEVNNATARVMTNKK
CUCCUCAAACAUCUUUGGAGGAACUACCUGGCCAAAACACUGGCCAGGAUGCAGCAAGCAGCAGCAGGGGCUGACAGCAGGCUUACUGCCAUCAACAUUGCUUGAAAUGC: 0.276
UCGCUGUGGGGGUUUUUUUCUCUGGGGUUCCCCUGGAAAGGCUGCAGGAACUAGGCACAAGCUCUCUGAGCCAGUCCCUCAGCCACUGAAGUCCCCCUUUCUCCUUUUUU: 0.239
GCCCAGGGUCGGAGCCCAGGGCCUCUCCCUUCCUGUCGUUCAAUGGACGUGGUGGUGGCUGUUCCACACCCAUUUUGUUGCAGUUCCUGUGAGACAGGAGAGGCUGAGCC: 0.535
CUCUAAGUUUGAGAGAAACCACUCCUCCAAGCUUCUCUGUUUCUUCCCAUUUCCUGUGGUCCUUUUUUUGUCAUCCCUUGAAGGUGCCCUUGAAAUCCUAAUCUAAGACA: 0.739
CCCAGAGCAGCACAAUGCCCGUCUGAGCCCCACGUGGCAGGAGCCUCUGGGACGGGGCACACACAGGCCCAGCCUCUGUGCUGUCUCCUCCUCCGUGCGCCUCAGACUCG: 0.368
GUCUGGUUCUAAUAAUUGGUACCCUCUUUCUCGGUUCCAUAUUUUUAACAACCCUUUAACAAACUAAAUAAUUUUUAAGCAGCCAGGAAAUUUUAGAGGACAGAUAUUUG: 0.606
UACCACCAGUCACCUGCAUCAUUCAUGCUAGAAGCUGUGUUCUAGCCAUGCAGUUACAUCUCUUUCUAAAUGAGGUCAGGUUUGCAAAUAAUAACAACAAAAAAGCUUUG: 0.467
CUCCCCUGCCCCUCCCCGCUUCCUGACCUCUGAAGAGGUUGGGAAGUGACCAUUUGGAUGUCUGGGCCCUGCCAAGGCGACAGGGAGGGUCAGAGGGAGGCCGGCUGCUU: 0.256
GCAGUCAGAAGAAUGUGAAGGAUGUCUGCGCUGCAGCCUCCAGUGCUGGGUACGCUUCUCUCGUGGGGAAGGGCCGUGUCCAGGCAUGUGGAUGGCUUGAAGACUACUGA: 1.01
CCCCAGAUGGACUGGAAUGUUGUGGCAUGAGAGCGCAUGUGUGCGAUGGCCCCGCUGUGGUCCCCUCUCUGUCCCUCCAUCUGUAUGUGUUCUGUGUCCCUUGCAUGUGU: 38.1
CUCCCCUCCCUGCCGCUGUGCUCCGCUCCUCCCCACACUUCCUUGCUACAGUUCCCAGCUGCUGUAACAGAGCCACCUCCACCUCUAACAAUAAACCAAGUUCAUUGCAG: 0.93
CUCAUAAGAAGGGAUGGGGAGGGAAGGAAGUCGCCUUGUUUACAGACCUAUUUUUGUUGUCUUGUUCCCUAAAGGAGUUUUCUAACACUUGAAUAAAUUGGGAUACUAAA: 0.976

Set 2 — method: DHFR PCA, deep sequencing; matrix: yeast; added: (+)-ABA 0 µM; baseline: wild-type fitted maximum; reading: higher = stronger binding; quantity: relative binding score
Target: ABI1, truncated, D143A, DHFR fusion (Arabidopsis thaliana)
Notes: methotrexate growth selection, single substitutions
Starting sequence: PYL1, truncated, DHFR fusion (Arabidopsis thaliana); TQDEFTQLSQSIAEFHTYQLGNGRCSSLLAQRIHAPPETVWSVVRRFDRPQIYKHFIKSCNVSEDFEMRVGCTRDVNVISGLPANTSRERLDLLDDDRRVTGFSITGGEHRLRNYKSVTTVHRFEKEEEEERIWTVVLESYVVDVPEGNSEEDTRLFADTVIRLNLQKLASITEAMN
L166F: -5.08%
E131M: 35.4%
S140D: 6.73%
I52F: 8.5%
V40P: -0.553%
V161Y: 14.1%
E152L: 1.77%
L8A: 1.98%
R24P: -5.71%
T73F: 43.8%
T17P: 0.519%
P50S: 0.0139%
T6H: 39.8%
K116I: -0.0658%
R24Y: 1.54%
R155T: 5.97%

Set 3 — target: CCNB1, cyclin fold, Cln2 fusion (human); method: yeast growth competition, sequencing; matrix: yeast; notes: weak parent motif; baseline: not given; reading: higher = stronger binding; quantity: normalised enrichment score
Starting sequence: NPAT docking peptide (human); PCHRRVLCFDSTT
PCHRRVACFDSTT [L7A]: 0.608
PCHARVLCFDSTT [R4A]: 0.545
PCHRRVLCFASTT [D10A]: 0.359
ACHRRVLCFDSTT [P1A]: 0.294
PCHRRVLCLDSTT [F9L]: -0.144
PAHRRVLCFDSTT [C2A]: 0.558
PCHRRVLAFDSTT [C8A]: 0.677

Set 4 — method: EMSA with sequencing; form: double-stranded DNA, one strand shown; matrix: in vitro; tested at: 10 and 20 nM; baseline: negative control set to 0; reading: higher = stronger binding; quantity: normalised bound fraction
Target: Hepatocyte nuclear factor 3-alpha (Foxa1, Mus musculus, UniProt P35582, residues 1-468, full length assumed)
Notes: whole designed probe, mean of two concentrations, ends assumed
Shared flanks, not repeated: GTGAGCGGTGCCCATTGATGGGGAAC … TTTCACTGGGATCGTGGGGAC
Residues (chain): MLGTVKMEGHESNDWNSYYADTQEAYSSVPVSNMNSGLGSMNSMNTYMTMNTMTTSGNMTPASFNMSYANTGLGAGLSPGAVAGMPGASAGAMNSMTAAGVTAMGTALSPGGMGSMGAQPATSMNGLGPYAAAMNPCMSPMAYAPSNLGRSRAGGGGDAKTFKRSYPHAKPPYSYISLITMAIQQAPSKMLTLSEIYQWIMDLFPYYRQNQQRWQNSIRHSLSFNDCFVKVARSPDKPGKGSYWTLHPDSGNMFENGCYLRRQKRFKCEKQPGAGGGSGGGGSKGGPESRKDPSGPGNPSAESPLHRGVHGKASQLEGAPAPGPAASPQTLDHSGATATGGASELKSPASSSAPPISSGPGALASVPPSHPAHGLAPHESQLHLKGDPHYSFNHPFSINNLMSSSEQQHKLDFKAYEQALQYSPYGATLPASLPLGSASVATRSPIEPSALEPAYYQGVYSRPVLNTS
ATCTTCCCCCTCTTCCTTGCCCCACCAGCTCACCTTCCCGGGTTATTTGCACAAAGGAAAATAAATAAAGCCGGCATTCGTTAACCCTCTTCACGCGCATACTGCTGTTTGCTCTGGATGAATCATGGTCCTTTGGCGAGGCGTGGCTCCGGGAGAGCAAAGCACCGTGTCAGGGCCATGATCCGGGCTCGCC: 0.374 ratio
TCAGGTTGCAGTGAGCTCTGATCGTGCCACTGCACTCCAGCCTGTGTGACAGAGCAAGGGCCTGTCTCTAAAAACAAAACAAAACAAAGCAAAACAAACATGAGAAGTGCTGATTCATACCTTGCAAAGAGGTTTCATTCGGCAGCAAGTTGAAATTATCTACTGGTTTGTACATGAGCTAGCACTTCCTCTT: 0.418 ratio
CTATGTGCTGCCCCCAGAGGTGGAGTGTACAGAGGCAGGCAGGCTTCCTTGAGCTGCAGTGAGTTCCACCCAGTTTGAGCTTCCTGGCTGCTTTGTTTACCTACTCAAGCCTCAGCAAACGCGACGCCCCTCCCTCAGCCTGGCTGCTGTCTTGCAGTTAGATCTCAGACTGCTGTGCCAGCAGTGAGCAAGG: 0.421 ratio
ATCTTCCCCCTCTTCCTTGCCCCACCAGCTCACCTACGGGGGTTATTTGCACAAAGGAAAATAAATAAAGCCGGCATTCGTTAACGCAGTTCTGGCGCAAACTGCTGTTTGCTCTGGATGAATCATGGTCCTTTGGCGAGGCGTGGCTCCGGGAGAGCAAAGCACCGTGTCAGGGCCATGATCCGGGCTCGCC: 0.384 ratio
CCCTTAACCTACTCCTAAATCCTCTTTCCTTTTCCTTTCTAAATATCCTTTCGTGCTGTGAAGGGAAGAATGGAGGTGGGTCTTATTGCTACTAAATGACACATATCAGGTTTAGCTACACAATATGTTTGTAATTAAAAGCTTCAGCAAGAATATTCTGCTCCTTTCCTTTGAGGATTTGCAGAGCACAGGC: -0.0087 ratio
TCATAAGCATAAGGGTGAGTGACACTTTGCCCTCACCATCAAAACTGTTCAATTTGTGAAACGTGAATGCCCCATTCACATTGCTCATTTCATGTTTACTCTGGAGCATGTGTTCACTGAGTGAGCAGTATCCTTTTCAATTTATTTTTGGTGAAACACATAGTAGAATTAGTATAAATTAAATGCAAGTATA: 0.284 ratio
ATCTTCCCCCTCTTCCTTGCCCCACCAGCTCACCTTCCCGGGTTATTTGCAGATAGGAAAATAAATAAAGCCGGCATTCGTTAACCCTCTTCTGGCGCAAACTGCTGTTTGCTCTGGATGAATCATGGTCCTTTGGCGACGCCAGGCTCCGGGGAAGCAAGACACCGTGTCAGGGCCATGATCCGGGGTGGCC: 0.336 ratio
ATCTTCCCCCTCTTCCTTGCCCCACCAGCTCACCTTCCCGGGTTATTCGAAGATTGGAAAATAAATAAAGCCGGCATTCGTTAACCCTCTTCTGGCGCAAACTGCTGTTTGCTCTGGATGAATCATGGTCCTTTGGCGACGCCAGGCTCCGGGAGAGCAAAGCACCGTGTCAGGGCCATGATCCGGGGTGGCC: 0.302 ratio

Set 5 — method: protein binding microarray; form: double-stranded DNA, one strand shown; matrix: in vitro; tested at: not given; baseline: not given; reading: higher = stronger binding; quantity: E-score
Target: Histone acetyltransferase KAT6A, winged helix 2, GST fusion (KAT6A, Homo sapiens, UniProt Q92794, residues 85-181)
Notes: 8-mer, flanks averaged, mean of 2 arrays, mostly near background
Construct (chain): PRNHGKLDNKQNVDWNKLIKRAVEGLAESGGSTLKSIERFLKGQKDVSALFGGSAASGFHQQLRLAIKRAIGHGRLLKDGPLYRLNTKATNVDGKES
GTGGGAAA: 0.0269
GAACACAA: -0.0611
CTTACATA: -0.0242
CATAGTGC: -0.0477
CCTTTTCA: 0.00013
AGCGGTTC: -0.0923
TCATAACA: 0.0326
GCAGAAAA: 0.133
GGATTAGA: -0.107
TTGCCAAA: 0.103
GTTGTGGA: -0.158
CCAGTGCC: 0.0751
ACACTTAG: -0.161
GTCTCTGA: 0.0216
CGGACACC: -0.0874
TGCTCACA: -0.0115
CCTTTACA: -0.0807
CGGCGTAC: 0.0515
GCTACCTA: -0.012
AAGGATAT: -0.0939
CGATAAGC: -0.0543
AGTGCTCG: -0.017
CAGTGCGG: 0.304
ACCGACAT: 0.00566
CGACCTAA: 0.147

A few entries again (set 2):
L8A: 1.98%
T6H: 39.8%
K116I: -0.0658%
R155T: 5.97%
T17P: 0.519%
L166F: -5.08%
T73F: 43.8%
E131M: 35.4%
R24P: -5.71%
E152L: 1.77%
I52F: 8.5%
